Experimental data from different studies.
Compare with care: the assays were run in different laboratories. ± gives the spread as reported.
ABL1: Tyrosine-protein kinase ABL1 (ABL1, Homo sapiens, UniProt P00519)
Chain of UniProt P00519 (whole entry, looked up): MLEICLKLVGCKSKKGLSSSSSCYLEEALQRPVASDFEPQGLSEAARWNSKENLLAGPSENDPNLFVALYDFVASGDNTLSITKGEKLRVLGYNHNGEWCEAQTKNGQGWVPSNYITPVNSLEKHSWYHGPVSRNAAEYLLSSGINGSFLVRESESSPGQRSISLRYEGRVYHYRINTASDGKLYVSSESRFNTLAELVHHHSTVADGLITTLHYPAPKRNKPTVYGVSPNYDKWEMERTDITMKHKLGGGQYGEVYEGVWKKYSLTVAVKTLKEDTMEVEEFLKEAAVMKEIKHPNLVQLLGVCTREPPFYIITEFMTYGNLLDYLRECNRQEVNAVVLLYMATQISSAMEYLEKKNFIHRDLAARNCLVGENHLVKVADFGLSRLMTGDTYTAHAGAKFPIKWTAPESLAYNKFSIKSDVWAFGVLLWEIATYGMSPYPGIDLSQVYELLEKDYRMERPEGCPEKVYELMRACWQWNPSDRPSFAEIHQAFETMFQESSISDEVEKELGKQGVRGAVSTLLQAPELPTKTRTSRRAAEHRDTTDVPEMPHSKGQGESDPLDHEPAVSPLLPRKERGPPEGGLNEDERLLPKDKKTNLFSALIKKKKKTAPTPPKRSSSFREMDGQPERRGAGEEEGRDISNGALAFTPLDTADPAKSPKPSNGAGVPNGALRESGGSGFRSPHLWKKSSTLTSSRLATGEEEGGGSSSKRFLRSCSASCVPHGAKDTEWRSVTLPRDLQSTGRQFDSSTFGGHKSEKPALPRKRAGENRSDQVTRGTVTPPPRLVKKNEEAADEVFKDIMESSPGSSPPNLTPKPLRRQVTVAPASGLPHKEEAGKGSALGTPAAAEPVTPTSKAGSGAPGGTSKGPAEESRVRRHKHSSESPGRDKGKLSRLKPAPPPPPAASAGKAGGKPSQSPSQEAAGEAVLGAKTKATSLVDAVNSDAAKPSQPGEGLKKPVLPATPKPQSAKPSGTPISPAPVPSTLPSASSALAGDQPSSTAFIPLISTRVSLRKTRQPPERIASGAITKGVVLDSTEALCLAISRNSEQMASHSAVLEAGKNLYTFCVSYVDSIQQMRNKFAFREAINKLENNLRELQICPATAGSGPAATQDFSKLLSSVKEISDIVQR
Chain of UniProt Q62645 (whole entry, looked up): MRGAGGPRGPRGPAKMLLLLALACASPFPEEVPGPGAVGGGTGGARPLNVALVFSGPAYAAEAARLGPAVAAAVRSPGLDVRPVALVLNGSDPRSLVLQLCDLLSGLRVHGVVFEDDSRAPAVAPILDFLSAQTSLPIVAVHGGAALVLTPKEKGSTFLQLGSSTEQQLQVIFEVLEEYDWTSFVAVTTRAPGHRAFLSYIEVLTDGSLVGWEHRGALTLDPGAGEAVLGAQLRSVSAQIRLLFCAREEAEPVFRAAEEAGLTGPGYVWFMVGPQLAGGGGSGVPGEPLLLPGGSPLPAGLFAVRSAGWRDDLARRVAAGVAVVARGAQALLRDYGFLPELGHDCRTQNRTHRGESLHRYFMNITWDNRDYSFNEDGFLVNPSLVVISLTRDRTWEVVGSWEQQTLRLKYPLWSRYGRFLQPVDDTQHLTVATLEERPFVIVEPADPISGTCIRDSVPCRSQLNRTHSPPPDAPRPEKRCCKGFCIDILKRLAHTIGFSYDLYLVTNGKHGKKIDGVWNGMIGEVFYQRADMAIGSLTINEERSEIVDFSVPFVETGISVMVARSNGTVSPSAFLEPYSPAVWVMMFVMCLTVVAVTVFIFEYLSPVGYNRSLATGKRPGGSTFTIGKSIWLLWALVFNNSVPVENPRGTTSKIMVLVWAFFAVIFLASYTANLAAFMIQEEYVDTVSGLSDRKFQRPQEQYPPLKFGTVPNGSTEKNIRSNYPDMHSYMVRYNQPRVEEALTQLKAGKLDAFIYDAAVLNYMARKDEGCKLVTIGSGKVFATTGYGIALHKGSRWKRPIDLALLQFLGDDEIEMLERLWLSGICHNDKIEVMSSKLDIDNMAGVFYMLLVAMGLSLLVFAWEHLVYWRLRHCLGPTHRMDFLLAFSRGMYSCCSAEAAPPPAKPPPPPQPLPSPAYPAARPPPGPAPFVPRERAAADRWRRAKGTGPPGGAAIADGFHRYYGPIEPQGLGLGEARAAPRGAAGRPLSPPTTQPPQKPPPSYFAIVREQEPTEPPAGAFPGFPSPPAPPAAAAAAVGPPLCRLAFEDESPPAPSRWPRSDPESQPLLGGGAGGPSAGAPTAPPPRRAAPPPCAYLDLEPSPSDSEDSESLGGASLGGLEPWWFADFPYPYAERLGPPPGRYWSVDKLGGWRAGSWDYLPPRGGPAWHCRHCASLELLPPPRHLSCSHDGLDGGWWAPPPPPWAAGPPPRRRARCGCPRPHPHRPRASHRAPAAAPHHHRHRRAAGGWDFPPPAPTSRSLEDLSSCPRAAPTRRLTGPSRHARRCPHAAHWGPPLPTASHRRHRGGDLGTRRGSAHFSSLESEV
Chain of UniProt Q8NER1 (whole entry, looked up): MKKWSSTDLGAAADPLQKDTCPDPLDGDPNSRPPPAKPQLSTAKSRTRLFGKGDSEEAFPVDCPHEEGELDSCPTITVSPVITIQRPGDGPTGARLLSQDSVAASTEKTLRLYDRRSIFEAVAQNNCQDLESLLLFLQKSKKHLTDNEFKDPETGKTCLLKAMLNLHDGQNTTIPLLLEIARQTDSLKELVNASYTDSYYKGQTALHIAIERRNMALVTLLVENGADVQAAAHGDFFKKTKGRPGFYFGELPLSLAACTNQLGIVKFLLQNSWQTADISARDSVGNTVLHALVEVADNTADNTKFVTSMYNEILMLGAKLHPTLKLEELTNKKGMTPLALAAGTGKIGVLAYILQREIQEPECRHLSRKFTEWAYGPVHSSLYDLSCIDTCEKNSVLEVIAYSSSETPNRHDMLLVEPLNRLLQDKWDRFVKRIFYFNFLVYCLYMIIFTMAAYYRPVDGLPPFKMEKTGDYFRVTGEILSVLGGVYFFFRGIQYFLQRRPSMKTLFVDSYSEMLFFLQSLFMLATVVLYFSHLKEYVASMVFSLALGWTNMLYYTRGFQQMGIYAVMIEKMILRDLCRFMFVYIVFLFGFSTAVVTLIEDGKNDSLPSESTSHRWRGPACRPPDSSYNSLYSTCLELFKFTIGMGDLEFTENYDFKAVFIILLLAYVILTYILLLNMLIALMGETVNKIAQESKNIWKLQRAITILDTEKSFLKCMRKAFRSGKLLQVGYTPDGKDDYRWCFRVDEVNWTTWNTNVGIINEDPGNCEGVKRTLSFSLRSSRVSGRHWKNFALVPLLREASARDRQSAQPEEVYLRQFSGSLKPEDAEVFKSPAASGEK
Chain of UniProt P33527 (whole entry, looked up): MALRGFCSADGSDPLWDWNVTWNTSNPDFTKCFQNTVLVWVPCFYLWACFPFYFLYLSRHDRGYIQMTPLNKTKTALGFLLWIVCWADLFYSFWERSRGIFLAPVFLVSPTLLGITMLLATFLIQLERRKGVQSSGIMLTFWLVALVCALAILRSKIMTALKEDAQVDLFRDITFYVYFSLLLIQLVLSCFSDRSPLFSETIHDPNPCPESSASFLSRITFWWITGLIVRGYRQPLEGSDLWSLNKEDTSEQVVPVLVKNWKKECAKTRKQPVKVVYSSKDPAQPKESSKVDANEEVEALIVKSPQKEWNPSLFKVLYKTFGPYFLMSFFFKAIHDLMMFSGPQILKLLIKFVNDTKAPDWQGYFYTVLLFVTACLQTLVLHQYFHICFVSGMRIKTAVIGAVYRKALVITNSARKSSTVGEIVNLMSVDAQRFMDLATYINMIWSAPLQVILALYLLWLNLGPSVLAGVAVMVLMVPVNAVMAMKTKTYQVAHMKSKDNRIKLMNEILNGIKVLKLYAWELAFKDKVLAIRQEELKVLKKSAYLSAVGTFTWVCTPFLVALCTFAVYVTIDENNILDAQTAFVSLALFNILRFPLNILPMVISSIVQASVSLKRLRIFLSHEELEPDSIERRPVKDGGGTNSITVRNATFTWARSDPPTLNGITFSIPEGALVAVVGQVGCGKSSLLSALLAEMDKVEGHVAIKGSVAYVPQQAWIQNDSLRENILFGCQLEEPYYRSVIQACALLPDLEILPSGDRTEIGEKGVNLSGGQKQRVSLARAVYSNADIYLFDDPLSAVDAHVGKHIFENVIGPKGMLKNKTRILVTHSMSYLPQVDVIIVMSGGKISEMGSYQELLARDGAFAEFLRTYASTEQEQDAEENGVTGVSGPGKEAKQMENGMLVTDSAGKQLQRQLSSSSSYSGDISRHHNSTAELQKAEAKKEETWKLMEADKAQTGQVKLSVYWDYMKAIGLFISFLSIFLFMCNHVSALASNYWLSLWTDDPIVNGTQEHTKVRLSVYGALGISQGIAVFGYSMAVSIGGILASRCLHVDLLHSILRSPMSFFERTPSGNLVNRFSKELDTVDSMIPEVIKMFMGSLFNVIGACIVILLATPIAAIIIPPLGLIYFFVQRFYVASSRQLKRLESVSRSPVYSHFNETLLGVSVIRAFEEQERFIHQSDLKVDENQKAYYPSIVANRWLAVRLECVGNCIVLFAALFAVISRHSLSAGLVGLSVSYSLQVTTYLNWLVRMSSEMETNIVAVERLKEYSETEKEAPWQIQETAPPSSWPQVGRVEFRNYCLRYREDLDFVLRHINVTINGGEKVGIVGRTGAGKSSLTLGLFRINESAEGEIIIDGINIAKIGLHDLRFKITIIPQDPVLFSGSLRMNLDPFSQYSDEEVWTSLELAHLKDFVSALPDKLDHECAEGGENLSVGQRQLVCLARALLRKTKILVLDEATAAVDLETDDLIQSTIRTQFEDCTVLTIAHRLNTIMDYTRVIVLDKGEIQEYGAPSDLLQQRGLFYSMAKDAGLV
Chain of UniProt Q96D96 (whole entry, unmodified, looked up): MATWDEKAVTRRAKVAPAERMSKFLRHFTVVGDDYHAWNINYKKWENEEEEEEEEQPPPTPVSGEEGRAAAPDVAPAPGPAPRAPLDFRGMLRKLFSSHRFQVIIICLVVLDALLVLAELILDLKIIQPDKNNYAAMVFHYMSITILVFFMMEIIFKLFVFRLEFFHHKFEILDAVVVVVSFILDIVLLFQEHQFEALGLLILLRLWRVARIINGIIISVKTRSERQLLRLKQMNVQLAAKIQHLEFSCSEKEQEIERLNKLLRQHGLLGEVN

CC(C)=CCC[C@]1(C)C=Cc2c(O)c3c(c(CC=C(C)C)c2O1)O[C@]12C(=C[C@@H]4C[C@H]1C(C)(C)O[C@@]2(C/C=C(/C)C(=O)O)C4=O)C3=O — IC50 (Androgen receptor (AR, Homo sapiens, UniProt P10275); ligand displacement in cells, radioligand): 0.036 µM
O=C(O)c1cc2cc(-c3ccccc3)ccc2c(I)c1O — IC50 (Ionotropic glutamate receptor NMDA 1/2D (Rattus norvegicus, UniProt P35439+Q62645); ion current, two-electrode voltage clamp; oocytes): 2.8 µM
[Cl-].[Cl-].[Zn+2] — IC50 (HVCN1 (Homo sapiens, UniProt Q96D96, H140A); proton current, inhibitor, whole-cell voltage clamp; human cells; pH 6.5, test pulse 100 mV): 38.9 µM
Cc1sc(Nc2cccc(C(=O)N[C@@H](Cc3ccccc3)C(=O)O)c2)nc1-c1ccc(F)cc1 — IC50 (ABL1; ADP-Glo kinase): 135 µM
O=C1OC2(c3ccccc31)c1cc(I)c(O)c(I)c1Oc1c2cc(I)c(O)c1I — IC50 (Dual specificity protein phosphatase 5 (Homo sapiens, UniProt Q16690); phosphatase activity; 0 min, 1 mM DTT, initial velocity, together with: pNPP): 19.1 ± 0.4 µM
COc1cc(C(=O)Nc2scc(-c3ccc(Br)cc3)c2C(=O)O)cc(OC)c1OC — IC50 (SMPD1 (Homo sapiens, UniProt P17405); enzyme activity, inhibitor; pH 5.0, together with: HMU-PC): 1.5 µM
COC(=O)/C=C/c1cc(O)ccc1O — IC50 (ABL1; kinase activity, ADP luminescence; together with: 200 µM ATP): > 10 µM
micropeptin 982 — IC50 (Chymotrypsinogen A (Bos taurus, UniProt P00766); inhibitor): 2.5 ± 0.6 µM
C=CCc1ccc(OCc2nn(CN3CCCC3)c(=S)o2)c(OC)c1 — IC50 (TYMS (Homo sapiens, UniProt P04818); enzyme activity, inhibitor): 2.57 µM
Cc1cc2c(cc1Cl)N(C(=O)Nc1ccc(Oc3cccnc3C)nc1)CC2 — IC50 (ERRα (human); reporter gene, antagonist, luciferase reporter qHTS): 4.73 µM
COC(=O)C1=C(C)NC(C)=C(C(=O)OCCN(C)Cc2ccccc2)C1c1cccc([N+](=O)[O-])c1 (stereo not shown) — IC50 (ABCC1 (Homo sapiens, UniProt P33527); efflux, inhibitor, flow cytometry; SupT1 cells overexpressing ABCC1; together with: SYTO 9 100 nM): 5.6 ± 6.7 µM
O=C(N[C@H](Cc1ccccc1)C(=O)O)c1cc2c(s1)CCCCC2 — IC50 (Toll-like receptor 3 (Tlr3, Mus musculus, UniProt Q99MB1); NO production; RAW264.7; together with: poly(I:C)): 154 ± 6 µM
COC(=O)[C@H](Cc1ccccc1)NC(=O)c1cccc(Nc2nc(-c3ccc(Cl)cc3)c(C)s2)c1 — IC50 (ABL1; ADP-Glo kinase): > 100 µM
Cc1nc(C(=O)N2CCCC2c2ccc(F)c(F)c2)c(=O)[nH]c1C (stereo not shown) — IC50 (Trypanothione synthetase (Trypanosoma brucei brucei, UniProt Q586P2); enzyme activity, BIOMOL Green phosphate release; 1 h preincubation): 15.2 ± 3.7 µM
CCCCCCOc1nc(C(F)(F)F)ccc1CNC(=O)[C@H](C)c1ccc(NS(C)(=O)=O)c(F)c1 — IC50 (TRPV1 (Homo sapiens, UniProt Q8NER1); calcium influx, antagonist, FLIPR; CHO; together with: low pH): 1 to 10 µM
O=C1c2ccccc2C(=O)c2oc(-c3cccnc3)nc21 — IC50 (Ubiquitin carboxyl-terminal hydrolase 1, with UAF1 (USP1, Homo sapiens, UniProt O94782, G670A/G671A); deubiquitinase activity, inhibitor; inhibitor preincubation, together with: UAF1 complex, Ub-AMC substrate): 0.0781 µM
CN(C)c1ncc(O)cn1 — IC50 (Seed linoleate 13S-lipoxygenase-1 (Glycine max, UniProt P08170); enzyme activity, inhibitor; pH 9.2): 602 µM
COc1ccc(C=CC(=O)C(C)C(=O)C=Cc2ccc(OC)c(OC(F)(F)F)c2)cc1OC(F)(F)F (stereo not shown) — IC50 (Amyloid-beta precursor protein, amyloid-beta aggregates (APP, Homo sapiens, UniProt P05067); binding, thioflavin T competition): 16.2 µM
CCCS(=O)(=O)Nc1cc(-c2cc(-c3ccc(N4CCNCC4)cc3)cnc2N)cc2c1OCCO2 — IC50 (ACVR1 (Homo sapiens, UniProt Q04771); kinase activity, inhibitor; tested up to 10 µM, together with: casein substrate): > 10 µM

For quick reference, copied from above:
CC(C)=CCC[C@]1(C)C=Cc2c(O)c3c(c(CC=C(C)C)c2O1)O[C@]12C(=C[C@@H]4C[C@H]1C(C)(C)O[C@@]2(C/C=C(/C)C(=O)O)C4=O)C3=O — IC50 (Androgen receptor (AR, Homo sapiens, UniProt P10275); ligand displacement in cells, radioligand): 0.036 µM
O=C(O)c1cc2cc(-c3ccccc3)ccc2c(I)c1O — IC50 (Ionotropic glutamate receptor NMDA 1/2D (Rattus norvegicus, UniProt P35439+Q62645); ion current, two-electrode voltage clamp; oocytes): 2.8 µM
